Results collected from several papers.
Lines come from different studies, so protocols differ. ± marks the error that the study gave.

With `O=C(OC(C(F)(F)F)C(F)(F)F)N1CCN(Cc2cccc(Oc3ccccc3)c2)CC1` the k2 was 0.089 min⁻¹ (PET blocking study; rhesus monkey, brain Pons; 0.01 mg/kg, compound pretreatment, added: [18F]T-401 tracer).
`O=C(O)CCC(=O)O.[2H]C([2H])([2H])Oc1cc(C)c2[nH]ccc2c1CN1CC[C@@H](C2CC2)C[C@H]1c1ccc(C(=O)O)cc1` — result for “TEAE urine leukocyte positive”: 0% (healthy Chinese subjects; 200 mg, single ascending dose).
The blood TP of `CCc1cc(C(=O)NC)c2nccc(N3CCc4c(cc(Cn5ccnc5)cc4-c4cn(C)nc4C(F)(F)F)C3=O)c2c1` is reported as 58.7 ± 2.7 g/L (Sprague Dawley rats; oral, 100 mg/kg once daily, 7 days).
`COc1cc2c(cc1OC)C(=O)C(CC1CCN(Cc3ccccc3)CC1)C2` (stereo not shown): “VAS score change” 2.66 mm (Bond-Lader VAS, refers to: Mood; human; dose not given; relative to: placebo, direction not given).
`COc1c(O)c(C)cc2c1C(=O)c1c(cc(O)c(O)c1O)C2=O` gave a cell viability of 58 ± 8.61% (HepaRG co-cultured with HK-2; MTT; 66.67 µM, 24 h; relative to: untreated control).
`C[C@@H](O)[C@H]1C(=O)N2C(C(=O)O)=C(SCCN=CN)C[C@H]12` gave an amount permeated of 5.04 nmol (starch gel membrane permeability; Gram-negative envelope surrogate; 200 µM, 90 min, pH 7.4).
The AUC(0-all) of `Cc1cc(-c2ccc3cc[nH]c(=O)c3c2)ccc1O[C@H]1O[C@H](CO)[C@@H](O)[C@H](O)[C@@H]1O` is reported as 126 ng·h/mL (male Sprague-Dawley rat, plasma; intravenous, 3 mg/kg, group mean).
`O=C(Nc1nc2cccc(-c3ccc(CN4CCS(=O)(=O)CC4)cc3)n2n1)C1CC1` — result for “treatment-emergent adverse events”: 0% (refers to: regurgitation; rheumatoid arthritis patients; oral, 200 mg once daily, 4 weeks, any relatedness).
The viability of `CC(C(=O)Nc1cccc(/N=C/c2c(O)ccc3ccccc23)c1)c1ccccc1` (stereo not shown) is reported as 167% (OCI-Ly1; 0.5 µM, 120 h).
For `C=C1C(=O)O[C@@H]2C[C@@]3(C)CCCC(=C)[C@@H]3C[C@H]12`, the apoptotic cells was 0.47 ± 0.12 (COS-7; 10 µM, 24 h, 0.1% DMSO, unit not given; relative to: vehicle control).
For `CCCCOc1nc(N)c2c(n1)N(Cc1cccc(CN3CCCC3)c1)CC(=O)N2`, “drug-related TEAE incidence” read 0% (refers to: visual impairment; human; oral, 2 mg).
`Cc1ccc(Sc2ccccc2N2CCNCC2)c(C)c1`: “participants with TEAE” 0% (refers to: Thirst; healthy adult men; oral, 2.5 mg single dose).
For `Cc1nc2ccc(OCc3ccc(C(F)(F)F)cc3)cc2[nH]1`, the tissue/plasma ratio was 6 ± 1.6 (male Balb/c mice, liver; oral, 10 mg/kg, 72 h; relative to: tissue over plasma).
`Cc1c2oc3c(C)ccc(C(=O)N[C@@H]4C(=O)N[C@H](C(C)C)C(=O)N5CCC[C@H]5C(=O)N(C)CC(=O)N(C)[C@@H](C(C)C)C(=O)O[C@@H]4C)c3nc-2c(C(=O)N[C@@H]2C(=O)N[C@H](C(C)C)C(=O)N3CCC[C@H]3C(=O)N(C)CC(=O)N(C)[C@@H](C(C)C)C(=O)O[C@@H]2C)c(N)c1=O`: “median plasma concentration” 128 µg/L (LC-MS; children with cancer, plasma; dose not given, 5 min post dose).
For `C=C(c1ccc(C(=O)O)cc1)c1cc2c(cc1C)C(C)(C)CCC2(C)C`, the apoptosis was 3.51 ± 1.72 (COS-7; 100 µM, 24 h, 0.1% DMSO, unit not given; relative to: control).
`O=C([C@@H](Cc1cccc(C(F)(F)F)c1)NS(=O)(=O)c1cc(F)c2c(c1)CCNC2)N1CCCC1` has a viability of 117% (OCI-Ly1; 0.5 µM, 120 h).
For `OCCOCc1ccc(-c2noc(-c3ccc(OCC[18F])c(C(F)(F)F)c3)n2)cc1`, “absorbed radiation dose” read 0.16 mSv/MBq (Macaca mulatta, liver; female phantom OLINDA/EXM).
For `CC(=O)O[C@@]12CO[C@@H]1C[C@H](O)[C@@]1(C)C(=O)[C@H](O)C3=C(C)[C@@H](OC(=O)[C@H](O)[C@@H](NC(=O)OC(C)(C)C)c4ccccc4)C[C@@](O)([C@@H](OC(=O)c4ccccc4)[C@H]21)C3(C)C`, “serum ALT and AST” read “increased” (healthy BALB/c mouse; intravenous, 10 mg/kg every 3 days; relative to: saline).
`CNC(=O)c1ccc(-c2cnc3ncc(Cc4ccc5ncccc5c4)n3n2)cc1F` — result for “back pain incidence (all grades)”: 13% (CTCAE v4.0, any causality; human cancer patients; oral, 600 mg twice daily, expansion cohort at RP2D).
Under “change in QT interval”, `CCCCOC(=O)N1CCN(C(=O)[C@H](CP(=O)(O)O)NC(=O)c2cc(N3CC[C@H](OC)C3)nc(-c3ccccc3)n2)CC1` is recorded as -3.5 ± 15.8 ms (human; subcutaneous, 16 mg, 24 h post-dose; relative to: baseline).
For `O=C(O)c1ccccc1`, the plasma concentration was 61.5 µM (human plasma; mean, both sexes).
`N#CC[C@H](C1CCCC1)n1cc(-c2ncnc3[nH]ccc23)cn1` gave a V/F of 59.4 ± 29.1 L (children, plasma; oral, mean).
`COc1ccc(C=CC(=O)O)cc1OS(=O)(=O)O` gave a plasma concentration of 0.9 µM (human plasma; mean).
`CCOc1c([C@H](C)n2nc(C)c3c(N)ncnc32)cc(Cl)c(F)c1[C@@H]1CNC(=O)C1`: “observations with HR ≤100 bpm” 100% (ECG; previously treated B-cell malignancy patients; oral, 15 mg once daily, baseline below thresholds).
`Cc1nc(-c2cnc(NC(C)C)n(C)c2=O)ccc1Oc1ccnc(-c2cnn(C)c2)c1` has an oral bioavailability of 27.8% (Beagle dog, male, plasma; oral, 10 mg/kg, crossover study, mean).

Some of these lines once more:
For `CCCCOc1nc(N)c2c(n1)N(Cc1cccc(CN3CCCC3)c1)CC(=O)N2`, “drug-related TEAE incidence” read 0% (refers to: visual impairment; human; oral, 2 mg).
`Cc1ccc(Sc2ccccc2N2CCNCC2)c(C)c1`: “participants with TEAE” 0% (refers to: Thirst; healthy adult men; oral, 2.5 mg single dose).
